Results of several laboratories.
Each line is one published result; not all experiments were run side by side. Values joined by “and” are separate records of one study, mostly repeats; a detail may differ. ± gives the spread as reported.
AKR1C2: Aldo-keto reductase family 1 member C2 (AKR1C2, Homo sapiens, UniProt P52895)
Sequence of UniProt P52895 (whole entry, looked up): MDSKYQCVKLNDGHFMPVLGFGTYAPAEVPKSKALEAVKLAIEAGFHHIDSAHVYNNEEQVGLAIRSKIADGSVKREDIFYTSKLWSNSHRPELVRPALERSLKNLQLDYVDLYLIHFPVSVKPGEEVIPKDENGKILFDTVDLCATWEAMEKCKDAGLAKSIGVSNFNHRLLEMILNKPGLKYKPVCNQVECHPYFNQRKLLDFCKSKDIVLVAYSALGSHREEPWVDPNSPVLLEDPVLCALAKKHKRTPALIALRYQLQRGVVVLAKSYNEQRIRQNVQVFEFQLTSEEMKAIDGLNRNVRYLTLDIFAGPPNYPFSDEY
CDK4 with cyclin D3: Cyclin-dependent kinase 4, with cyclin D3 (CDK4, Homo sapiens, UniProt P11802)
Sequence of UniProt P11802 (whole entry, looked up): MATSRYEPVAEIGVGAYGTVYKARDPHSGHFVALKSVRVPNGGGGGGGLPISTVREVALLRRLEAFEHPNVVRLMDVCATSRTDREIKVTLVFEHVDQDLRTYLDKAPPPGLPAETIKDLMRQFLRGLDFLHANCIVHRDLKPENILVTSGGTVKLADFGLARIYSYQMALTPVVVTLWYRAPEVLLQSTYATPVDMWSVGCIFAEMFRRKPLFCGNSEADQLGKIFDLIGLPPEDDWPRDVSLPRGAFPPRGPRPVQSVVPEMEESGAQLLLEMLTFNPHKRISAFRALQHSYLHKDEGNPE
hdac10: Polyamine deacetylase HDAC10 (hdac10, Danio rerio, UniProt F1QCV2)
Sequence of UniProt F1QCV2 (whole entry, looked up): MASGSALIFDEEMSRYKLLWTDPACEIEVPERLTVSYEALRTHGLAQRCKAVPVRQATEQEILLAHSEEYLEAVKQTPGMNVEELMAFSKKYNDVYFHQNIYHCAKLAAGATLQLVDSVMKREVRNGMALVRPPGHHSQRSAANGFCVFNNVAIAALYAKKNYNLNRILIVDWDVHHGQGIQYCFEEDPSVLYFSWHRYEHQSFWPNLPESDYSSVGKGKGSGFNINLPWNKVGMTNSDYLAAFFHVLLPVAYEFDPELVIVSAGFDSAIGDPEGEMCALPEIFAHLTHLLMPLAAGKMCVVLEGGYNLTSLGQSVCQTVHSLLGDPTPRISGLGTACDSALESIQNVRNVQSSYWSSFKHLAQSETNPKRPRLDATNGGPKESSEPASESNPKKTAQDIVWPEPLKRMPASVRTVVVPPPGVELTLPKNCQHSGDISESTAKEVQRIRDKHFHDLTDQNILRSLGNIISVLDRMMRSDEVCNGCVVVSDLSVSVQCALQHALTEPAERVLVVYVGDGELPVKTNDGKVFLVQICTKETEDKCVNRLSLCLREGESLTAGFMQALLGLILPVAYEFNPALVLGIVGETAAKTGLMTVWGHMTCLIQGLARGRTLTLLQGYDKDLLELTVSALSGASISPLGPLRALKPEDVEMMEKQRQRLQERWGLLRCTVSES
Tripartite terminase subunit 3 C-terminal nuclease domain: Tripartite terminase subunit 3, C-terminal nuclease domain (Human betaherpesvirus 5, UniProt P16732)
Sequence of UniProt P16732 (whole entry, looked up): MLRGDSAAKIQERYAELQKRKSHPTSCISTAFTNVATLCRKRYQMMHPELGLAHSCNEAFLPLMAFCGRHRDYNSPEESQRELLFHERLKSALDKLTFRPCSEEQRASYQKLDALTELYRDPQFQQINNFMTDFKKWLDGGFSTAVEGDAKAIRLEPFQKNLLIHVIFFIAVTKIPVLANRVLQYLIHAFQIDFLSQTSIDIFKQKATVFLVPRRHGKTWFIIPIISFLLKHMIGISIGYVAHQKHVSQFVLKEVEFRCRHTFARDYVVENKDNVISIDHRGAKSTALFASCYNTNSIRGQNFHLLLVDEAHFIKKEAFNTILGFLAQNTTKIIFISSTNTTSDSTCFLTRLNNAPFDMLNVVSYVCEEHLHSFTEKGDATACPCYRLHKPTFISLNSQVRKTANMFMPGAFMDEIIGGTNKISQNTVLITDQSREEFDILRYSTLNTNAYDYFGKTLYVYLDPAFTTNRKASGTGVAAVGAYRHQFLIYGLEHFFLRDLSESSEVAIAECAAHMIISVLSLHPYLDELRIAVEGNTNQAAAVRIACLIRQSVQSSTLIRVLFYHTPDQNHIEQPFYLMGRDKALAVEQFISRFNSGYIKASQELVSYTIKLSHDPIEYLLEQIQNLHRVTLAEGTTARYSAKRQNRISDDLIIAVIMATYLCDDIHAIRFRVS
ELANE: Neutrophil elastase (ELANE, Homo sapiens, UniProt P08246)
Sequence of UniProt P08246 (whole entry, looked up): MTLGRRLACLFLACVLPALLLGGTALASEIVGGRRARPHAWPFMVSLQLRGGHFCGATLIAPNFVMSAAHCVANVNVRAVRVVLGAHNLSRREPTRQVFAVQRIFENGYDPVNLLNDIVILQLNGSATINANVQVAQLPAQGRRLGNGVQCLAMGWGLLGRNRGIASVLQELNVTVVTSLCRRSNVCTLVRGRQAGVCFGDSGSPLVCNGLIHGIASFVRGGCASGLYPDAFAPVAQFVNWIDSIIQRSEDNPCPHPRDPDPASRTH
PNLIP: Pancreatic triacylglycerol lipase (PNLIP, Sus scrofa, UniProt P00591)
Sequence of UniProt P00591 (whole entry, looked up): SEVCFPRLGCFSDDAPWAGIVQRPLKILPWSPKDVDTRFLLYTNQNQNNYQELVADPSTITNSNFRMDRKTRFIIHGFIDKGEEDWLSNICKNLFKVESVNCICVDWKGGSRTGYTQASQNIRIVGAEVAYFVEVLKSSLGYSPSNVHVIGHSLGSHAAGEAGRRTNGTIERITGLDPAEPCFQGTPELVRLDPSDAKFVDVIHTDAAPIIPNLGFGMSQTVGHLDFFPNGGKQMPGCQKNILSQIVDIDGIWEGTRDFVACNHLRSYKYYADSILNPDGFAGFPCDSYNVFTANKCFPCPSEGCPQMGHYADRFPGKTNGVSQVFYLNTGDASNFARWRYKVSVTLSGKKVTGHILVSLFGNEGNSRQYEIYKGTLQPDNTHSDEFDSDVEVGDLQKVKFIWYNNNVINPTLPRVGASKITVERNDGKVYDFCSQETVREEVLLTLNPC
Ectonucleoside triphosphate diphosphohydrolase 8: Ectonucleoside triphosphate diphosphohydrolase 8 (Homo sapiens, UniProt Q5MY95)
Sequence of UniProt Q5MY95 (whole entry, looked up): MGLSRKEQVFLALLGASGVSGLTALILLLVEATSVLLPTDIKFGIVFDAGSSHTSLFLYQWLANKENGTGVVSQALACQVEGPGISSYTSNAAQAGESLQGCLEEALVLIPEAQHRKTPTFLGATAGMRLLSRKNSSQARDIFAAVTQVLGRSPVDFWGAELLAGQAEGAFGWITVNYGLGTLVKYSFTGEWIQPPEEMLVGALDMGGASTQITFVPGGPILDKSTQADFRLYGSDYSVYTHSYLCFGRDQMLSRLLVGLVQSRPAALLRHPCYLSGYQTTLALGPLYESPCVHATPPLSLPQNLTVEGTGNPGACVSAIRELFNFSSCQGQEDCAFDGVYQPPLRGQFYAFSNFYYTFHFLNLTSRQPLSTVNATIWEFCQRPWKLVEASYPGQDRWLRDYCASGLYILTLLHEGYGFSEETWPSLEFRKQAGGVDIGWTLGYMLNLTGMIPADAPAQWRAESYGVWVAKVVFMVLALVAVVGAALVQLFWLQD
Sigmar1: Sigma non-opioid intracellular receptor 1 (Sigmar1, Rattus norvegicus, UniProt Q9R0C9)
Sequence of UniProt Q9R0C9 (whole entry, looked up): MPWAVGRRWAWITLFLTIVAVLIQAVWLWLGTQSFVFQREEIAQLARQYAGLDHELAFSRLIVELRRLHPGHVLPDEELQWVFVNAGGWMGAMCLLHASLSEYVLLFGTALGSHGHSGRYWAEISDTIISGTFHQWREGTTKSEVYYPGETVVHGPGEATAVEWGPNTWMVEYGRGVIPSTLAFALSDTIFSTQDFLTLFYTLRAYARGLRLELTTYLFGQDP
Sequence of UniProt P48736 (whole entry, looked up): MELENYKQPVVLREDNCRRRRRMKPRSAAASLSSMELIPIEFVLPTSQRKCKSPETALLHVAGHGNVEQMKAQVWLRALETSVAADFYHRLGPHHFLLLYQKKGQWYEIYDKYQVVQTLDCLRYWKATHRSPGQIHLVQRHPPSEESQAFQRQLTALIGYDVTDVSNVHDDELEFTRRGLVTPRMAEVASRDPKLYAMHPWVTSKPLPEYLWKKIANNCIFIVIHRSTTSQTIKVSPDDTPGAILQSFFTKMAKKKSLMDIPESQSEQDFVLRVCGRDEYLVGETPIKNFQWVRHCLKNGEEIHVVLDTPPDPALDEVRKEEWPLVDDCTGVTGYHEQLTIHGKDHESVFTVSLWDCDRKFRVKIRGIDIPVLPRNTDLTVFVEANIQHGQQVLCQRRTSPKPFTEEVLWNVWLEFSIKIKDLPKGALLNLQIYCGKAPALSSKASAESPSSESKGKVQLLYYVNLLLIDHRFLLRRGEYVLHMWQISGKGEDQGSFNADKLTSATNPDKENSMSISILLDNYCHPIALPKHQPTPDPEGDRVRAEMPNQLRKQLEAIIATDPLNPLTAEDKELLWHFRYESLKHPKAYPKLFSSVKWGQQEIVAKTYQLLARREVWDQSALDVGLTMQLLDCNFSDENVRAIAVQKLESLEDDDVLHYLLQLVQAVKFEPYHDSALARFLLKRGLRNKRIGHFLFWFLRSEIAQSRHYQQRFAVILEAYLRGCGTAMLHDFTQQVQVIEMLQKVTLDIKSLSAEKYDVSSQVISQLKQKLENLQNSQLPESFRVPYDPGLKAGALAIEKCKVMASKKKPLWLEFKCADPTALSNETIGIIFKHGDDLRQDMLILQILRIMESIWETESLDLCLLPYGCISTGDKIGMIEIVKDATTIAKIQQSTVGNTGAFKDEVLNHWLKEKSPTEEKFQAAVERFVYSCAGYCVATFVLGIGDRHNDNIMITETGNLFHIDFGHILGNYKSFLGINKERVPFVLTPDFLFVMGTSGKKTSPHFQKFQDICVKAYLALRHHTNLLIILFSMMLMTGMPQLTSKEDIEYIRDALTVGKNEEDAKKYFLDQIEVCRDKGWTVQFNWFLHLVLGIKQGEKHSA
Sequence of UniProt P08192 (whole entry, looked up): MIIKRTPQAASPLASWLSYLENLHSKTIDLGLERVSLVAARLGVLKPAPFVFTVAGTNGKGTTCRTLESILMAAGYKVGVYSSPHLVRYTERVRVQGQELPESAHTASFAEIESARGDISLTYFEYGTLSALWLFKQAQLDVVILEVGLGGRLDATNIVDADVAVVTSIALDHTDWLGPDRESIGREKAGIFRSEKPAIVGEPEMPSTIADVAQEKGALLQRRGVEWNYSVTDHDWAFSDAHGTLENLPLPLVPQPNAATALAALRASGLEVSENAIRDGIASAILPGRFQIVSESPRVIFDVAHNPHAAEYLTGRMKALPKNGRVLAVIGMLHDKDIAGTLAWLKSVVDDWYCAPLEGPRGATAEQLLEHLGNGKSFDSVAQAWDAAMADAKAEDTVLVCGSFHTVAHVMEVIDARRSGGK

SMILES | target | assay | system | setting | inhibition
C[C@]12CCC[C@H]1[C@@H]1CCc3c(cc(Cl)c(O)c3Cl)[C@H]1CC2 | AKR1C2 | enzyme activity, inhibitor, absorbance | – | 10 µM, pH 9 | 66.2%
O=C(/C=C/c1ccc2c(c1)OCCO2)c1ccc(Br)s1 | MAOB (Homo sapiens, UniProt P27338) | enzyme activity, inhibitor, fluorescence | – | 1 µM | 83.8%
COc1ccc2c(c1)CC[C@@H]1[C@@H]2CC[C@]2(C)C(=O)CC[C@@H]12 | AKR1C2 | enzyme activity, inhibitor, absorbance | – | 10 µM, pH 9 | 4.8%
COc1ccc(N2C(=O)CSC2c2cccc(Br)c2)c(OC)c1 (stereo not drawn) | ACTR3/Actin-related protein 2 (Homo sapiens, UniProt P61158+P61160) | actin polymerization, pyrenyl-actin | – | concentration not given | inhibited
O=C(CCCCCCOc1ccc(Nc2ncc(F)c(-c3cn(C4CCCCC4)nn3)n2)cc1)NO | CDK4 with cyclin D3 | enzyme activity, inhibitor, TR-FRET | – | 50 nM | 4.5%
CC(C)c1ccc(COc2ccc(CC(=O)NCCN)cc2Cl)cc1 | PDK1 (Homo sapiens, UniProt Q15118) | enzyme activity, inhibitor, ATP luminescence | – | 2 µM | 53.3%
O=C(c1ccc(F)cc1)C1CCN(CCCCn2c(=O)[nH]c3ccccc32)CC1 | HTR7 (Homo sapiens, UniProt P34969) | cAMP production | HEK293 expressing h5-HT7R | concentration not given | ~75%
COCC12C(=O)NC3C4(C(OC)CC1O)C1CC5(O)C(OC)C(O)C(OC(C)=O)(C1C5OC(=O)c1ccccc1)C3(O)C(OC)C24 (stereo not drawn) | RPS6KB2 (Homo sapiens, UniProt Q9UBS0) | enzyme activity | – | 25 µM | inhibited
O=C(/C=C/c1cccc(Cl)c1)NO | hdac10 | – | – | 1 µM | 69%
COC(=O)c1cn(Cc2ccc(F)cc2)cc(OC)c1=O | Tripartite terminase subunit 3 C-terminal nuclease domain | endonuclease activity, inhibitor, ELISA | – | 20 µM | 8%
O=C(/C=C/c1cc(F)ccc1Br)NO | hdac10 | – | – | 0.1 µM | 12%
COc1ccc2c(c1Br)CC[C@@H]1[C@@H]2CC[C@@]2(C)C(=O)CC[C@@H]12 | AKR1C2 | enzyme activity, inhibitor, absorbance | – | 100 µM, pH 9 | 15%
COc1ccc(C(=O)NO)cc1NC(=O)c1ccc(-c2ccccc2)cc1 | hdac10 | – | – | 1 µM | < 10%
COC(=O)C1=CNC=C(C(=O)OC)C1c1ccc(F)c(C(F)(F)F)c1 | NR3C1 (Homo sapiens, UniProt P04150) | cell-free assay | – | 3 µM | 40 to 60%
O=C(/C=C/c1ccccc1Cl)NO | hdac10 | – | – | 0.1 µM | 37%
C[C@]12CC[C@@H]3c4ccc(O)c(Br)c4CC[C@H]3[C@@H]1CCC2=O | AKR1C2 | enzyme activity, inhibitor, absorbance | – | 100 µM, pH 9 | 62.5%
CC(C)Cn1cc(-c2ccnc(Nc3ccc(OCCCCCCC(=O)NO)cc3)n2)nn1 | CDK4 with cyclin D3 | enzyme activity, inhibitor, TR-FRET | – | 50 nM | 1.99%
CCC(=O)N(C)c1ccc(Cl)c(Cl)c1 | MTNR1A (Homo sapiens, UniProt P48039) | ligand displacement, radioligand | – | 10 µM | 25.8%
CC(C)(O)CC(=O)CC(C(=O)O)C1CC[C@]2(C)C1CCC1[C@@]3(C)CC[C@H](O)C(C)(C)C3CC[C@]12C (stereo partly drawn) | PTPN1 (Homo sapiens, UniProt P18031) | enzyme activity, inhibitor, absorbance | – | 50 µM | 80.2%
COc1cc(/C=N\C(=S)NNC(=O)CC2C(=O)c3ccccc3C2=O)cc(OC)c1OC | ELANE | enzyme activity, inhibitor, fluorescence | – | 1 µM | 17.3%
O=C(O[C@H](CO)C(F)(F)F)N1C[C@@H]2[C@H](C1)[C@H]2c1ccn(-c2ccc(F)nc2)n1 | Abhd12 (Mus musculus, UniProt Q99LR1) | ABPP | mouse brain lysate | 0.2 µmol/L | no inhibition
COC(=O)C(Cc1cccc(C)n1)NC(=O)CCCCCCC(=O)NO (stereo not drawn) | hdac10 | – | – | 1 µM | 51%
O=C1CC(=O)c2cc(S(=O)(=O)n3cnc4ccccc43)ccc21 | ELANE | enzyme activity, inhibitor, fluorescence | – | 100 µM | 91.1%
FC(F)(F)Oc1cccc(Nc2ncnc3[nH]c4cc(Br)ccc4c23)c1 | PTK6 (Homo sapiens, UniProt Q13882) | enzyme activity, inhibitor, ADP detection | – | 2 µM | 22%
O=C1COc2ccc(C(=O)COC(=O)c3ccc4c(c3)C(=O)N(c3ccccc3Cl)C4=O)cc2N1 | Programmed cell death 1 ligand 1, with PD-1 (CD274, Homo sapiens, UniProt Q9NZQ7) | PD-1/PD-L1 binding, inhibitor, TR-FRET | – | 25 µM | ≥ 20%
NCC(O)(C(=O)O)c1ccc(NCc2cnc3nc(N)nc(N)c3n2)cc1 (stereo not drawn) | Dihydrofolate synthase/folylpolyglutamate synthase (Escherichia coli, UniProt P08192) | enzyme activity, PK/LDH-coupled | – | 56 µM | 35 ± 13%
Cc1cccc(/C=C/C(=O)c2cnn(-c3ccccc3)c2C)c1 | AMY2 (Sus scrofa, UniProt P00690) | enzyme activity, inhibitor, absorbance | – | 140 µM | 27.7%

SMILES | target | assay | system | setting | inhibition
C[C@]12CC[C@@H]3c4cc(Br)c(O)cc4CC[C@H]3[C@@H]1CCC2=O | AKR1C2 | enzyme activity, inhibitor, absorbance | – | 10 µM, pH 9 | 36.4%
CN(C)S(=O)(=O)c1ccc(S(=O)(=O)N2CCC(n3c(=O)[nH]c4ccccc43)CC2)cc1 | mfd (Escherichia coli, UniProt P30958) | ATP binding, ITC | – | concentration not given | ~70%
COc1cc(C(=O)NC2CCC(N3CCN(CC4CCC5(CCCC5)C4)CC3)CC2)c(F)cc1Nc1ncc2c(n1)N(C1CCCC1(F)F)CC(F)(F)C(=O)N2C (stereo not drawn) | MUSK (Homo sapiens, UniProt O15146) | cell-free assay, TR-FRET | – | 10 µM | 0.94%
CN(C(=O)CCc1nc(CN2CCN(C(=O)c3ccc(Br)o3)CC2)no1)C1CCCCC1 | SCN9A (Homo sapiens, UniProt Q15858) | sodium current, whole-cell patch clamp | HEK293, stable | 20 µM | 2 ± 2%
Cc1cccc(NCC(=O)Nc2nc3ccccc3s2)c1 | PIK3CG (Homo sapiens, UniProt P48736) | enzyme activity, Adapta kinase | – | 100 µM | 52% and 44%
NC(=O)CCNC(=O)[C@H]1O[C@@H](n2cnc3c(N)ncnc32)[C@H](O)[C@@H]1O | ADORA2A (Homo sapiens, UniProt P29274) | radioligand binding | HEK293 membranes | 10 µM, added: [3H]CGS21680 | 44 ± 4%
O=C(NO)c1cc2c(Cl)cccc2s1 | hdac10 | – | – | 0.1 µM | 11%
S=C(Nc1ccc(Cl)cc1)Nc1ccc2[nH]cnc2c1 | Beta-glucuronidase (uidA, Escherichia coli, UniProt P05804) | enzyme activity, inhibitor, absorbance | – | 100 µM | 57.8%
O=C(O[C@H]1Cc2c(O)cc(O)cc2O[C@@H]1c1cc(O)c(O)c(O)c1)c1cc(O)c(O)c(O)c1 | PNLIP | enzyme activity, inhibitor | – | 10 µM | 75.8%
O=C(NC1CCCC1)c1cccc(S(=O)(=O)NC2CCCC2)c1 | Ectonucleoside triphosphate diphosphohydrolase 8 | enzyme activity, inhibitor, absorbance | – | 100 µM | 35%
C/C(=N\OCCN1CCOCC1)c1ccccc1C(F)(F)F | Sigmar1 | radioligand binding | – | 10 µM | 94.8%
O=C(O)c1cc(S(=O)(=O)Nc2ccc(Br)cc2)ccc1Cl | Ectonucleoside triphosphate diphosphohydrolase 3 (Homo sapiens, UniProt O75355) | enzyme activity, inhibitor, absorbance | – | 100 µM | 37%
O=c1c(-c2nc3ccccc3s2)cc2c(n1NS(=O)(=O)c1ccc(Cl)cc1)CCCCCC2 | USP7 (Homo sapiens, UniProt Q93009) | enzyme activity, inhibitor, fluorescence | – | 10 µg/mL | 55%
Oc1cc(O)c2c(c1)O[C@H](c1cc(O)c(O)c(O)c1)[C@H](O)C2 | PNLIP | enzyme activity, inhibitor | – | 10 µM | 89.5%
C/C(=N\OCCN1CCOCC1)c1cccc(C(F)(F)F)c1 | Sigmar1 | radioligand binding | – | 1 µM | 66.6%
CC(C)C[C@H]1CNC(=O)N2C[C@H](C[C@H]2C(N)=O)SCC(=O)NCCNC(=O)CSC[C@H](NC(=O)[C@H](Cc2ccccc2)NC(=O)[C@H](CO)NC(=O)[C@@H](N)[C@@H](C)O)C(=O)N[C@@H](CCC(=O)O)C(=O)N[C@@H](Cc2ccc(O)cc2)C(=O)N[C@@H](Cc2c[nH]c3ccccc23)C(=O)N[C@@H](C)C(=O)N[C@@H](CC(C)C)CNC(=O)N1 | E3 ubiquitin-protein ligase Mdm2, with p53 (MDM2, Homo sapiens, UniProt Q00987) | – | – | 0.1 µM | 99%
COC(=O)c1[nH]c(=O)c2cccnc2c1O | Tripartite terminase subunit 3 C-terminal nuclease domain | endonuclease activity, ELISA | – | 10 µM | 14 ± 0.5%
O=C(CCCCCCNc1ccc(C(=O)Nc2ccc(Cl)c(NC(=O)c3cccc(Cl)c3)c2)cn1)NO | Protein smoothened (SMO, Homo sapiens, UniProt Q99835, D473H) | BODIPY-cyclopamine binding, competition binding | HEK293T expressing SMO | concentration not given, added: BODIPY-cyclopamine | inhibited
O=C(O)c1ccc2cccnc2c1O | 1-deoxy-D-xylulose 5-phosphate reductoisomerase (Escherichia coli K-12, UniProt P45568) | enzyme activity, inhibitor, absorbance | – | 100 µM | 100%
C/C(=N\OCCN1CCCCC1)c1cccc(C(F)(F)F)c1 | Sigmar1 | radioligand binding | – | 10 µM | 104%
Fc1ccccc1-n1c(-c2ccccc2)cs/c1=N/N=C/c1ccc(N2CCOCC2)cc1 | CA2 (Bos taurus, UniProt P00921) | enzyme activity, inhibitor, absorbance | – | 500 µM | 78.4%
COc1ccc(C(=O)NO)cc1NC(=O)c1ccc(Cl)cc1 | hdac10 | – | – | 1 µM | 31%
C/C(=N\OCCCN1CCOCC1)c1ccc(C(F)(F)F)cc1 | Sigmar1 | radioligand binding | – | 10 µM | 99.2%
O=C(Nc1ccc(Cl)cc1)c1cccc(S(=O)(=O)Nc2ccc(Cl)cc2)c1 | Ectonucleoside triphosphate diphosphohydrolase 8 | enzyme activity, inhibitor, absorbance | – | 100 µM | 9%
C[C@@]12CC[C@@H]3c4ccc(O)cc4CC[C@H]3[C@@H]1CCC2=O | AKR1C2 | enzyme activity, inhibitor, absorbance | – | 10 µM, pH 9 | 3.5%
C/C(=N\OCCCCN1CCOCC1)c1ccc(C(F)(F)F)cc1 | Sigmar1 | radioligand binding | – | 10 µM | 81.8%
CC(=O)OC1CCC2(C)C(CCC3(C)C2CCC2C(C4=CC(C=C(C)C)OC4=O)CCC23C)C1(C)C (stereo not drawn) | α-glucosidase (yeast) | – | – | 50 µM, added: PNPG substrate | 53.6 ± 3.64%

Excerpt of the above:
SMILES | target | assay | system | setting | inhibition
CN(C)S(=O)(=O)c1ccc(S(=O)(=O)N2CCC(n3c(=O)[nH]c4ccccc43)CC2)cc1 | mfd (Escherichia coli, UniProt P30958) | ATP binding, ITC | – | concentration not given | ~70%
COc1cc(C(=O)NC2CCC(N3CCN(CC4CCC5(CCCC5)C4)CC3)CC2)c(F)cc1Nc1ncc2c(n1)N(C1CCCC1(F)F)CC(F)(F)C(=O)N2C (stereo not drawn) | MUSK (Homo sapiens, UniProt O15146) | cell-free assay, TR-FRET | – | 10 µM | 0.94%
CN(C(=O)CCc1nc(CN2CCN(C(=O)c3ccc(Br)o3)CC2)no1)C1CCCCC1 | SCN9A (Homo sapiens, UniProt Q15858) | sodium current, whole-cell patch clamp | HEK293, stable | 20 µM | 2 ± 2%
Cc1cccc(NCC(=O)Nc2nc3ccccc3s2)c1 | PIK3CG (Homo sapiens, UniProt P48736) | enzyme activity, Adapta kinase | – | 100 µM | 52% and 44%
NC(=O)CCNC(=O)[C@H]1O[C@@H](n2cnc3c(N)ncnc32)[C@H](O)[C@@H]1O | ADORA2A (Homo sapiens, UniProt P29274) | radioligand binding | HEK293 membranes | 10 µM, added: [3H]CGS21680 | 44 ± 4%
